Results collected from several papers.
Values joined by “and” are separate records of one study, mostly repeats; a detail may differ. ± gives the spread as reported.
Sequence of UniProt Q53GS9 (whole entry, looked up): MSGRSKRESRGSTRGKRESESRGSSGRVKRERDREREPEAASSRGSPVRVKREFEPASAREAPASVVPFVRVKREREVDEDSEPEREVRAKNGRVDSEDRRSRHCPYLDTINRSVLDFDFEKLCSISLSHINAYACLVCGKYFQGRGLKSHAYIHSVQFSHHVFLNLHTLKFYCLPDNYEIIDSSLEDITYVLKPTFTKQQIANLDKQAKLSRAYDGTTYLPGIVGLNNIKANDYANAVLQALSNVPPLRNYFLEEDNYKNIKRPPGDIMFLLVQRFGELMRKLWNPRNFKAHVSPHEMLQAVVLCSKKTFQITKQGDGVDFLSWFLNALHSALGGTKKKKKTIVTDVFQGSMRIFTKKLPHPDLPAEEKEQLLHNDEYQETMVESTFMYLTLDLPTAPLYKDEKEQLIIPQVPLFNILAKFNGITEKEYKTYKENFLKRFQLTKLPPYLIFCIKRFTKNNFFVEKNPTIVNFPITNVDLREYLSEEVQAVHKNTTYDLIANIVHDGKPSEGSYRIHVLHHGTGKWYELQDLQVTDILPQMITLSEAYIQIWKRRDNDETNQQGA
Sequence of UniProt Q70CQ1 (whole entry, looked up): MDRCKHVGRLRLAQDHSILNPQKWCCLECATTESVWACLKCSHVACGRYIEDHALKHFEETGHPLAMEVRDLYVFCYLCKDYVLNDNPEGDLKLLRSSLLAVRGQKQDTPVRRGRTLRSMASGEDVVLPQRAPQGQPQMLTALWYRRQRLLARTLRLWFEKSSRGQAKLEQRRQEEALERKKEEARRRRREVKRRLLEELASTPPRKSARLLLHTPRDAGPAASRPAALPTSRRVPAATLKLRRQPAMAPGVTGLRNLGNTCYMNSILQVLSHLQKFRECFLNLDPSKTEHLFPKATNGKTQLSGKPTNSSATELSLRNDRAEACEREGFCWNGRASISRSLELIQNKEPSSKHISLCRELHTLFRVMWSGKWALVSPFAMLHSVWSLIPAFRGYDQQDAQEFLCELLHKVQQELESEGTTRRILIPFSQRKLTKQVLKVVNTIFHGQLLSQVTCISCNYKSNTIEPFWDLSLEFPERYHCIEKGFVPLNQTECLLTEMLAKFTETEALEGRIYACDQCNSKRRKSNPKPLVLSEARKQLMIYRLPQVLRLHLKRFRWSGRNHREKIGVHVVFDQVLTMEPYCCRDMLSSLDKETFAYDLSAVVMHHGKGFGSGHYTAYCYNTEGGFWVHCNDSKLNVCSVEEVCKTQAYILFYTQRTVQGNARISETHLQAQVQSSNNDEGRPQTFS

Cc1cc(NC2CCN(C(=O)OC3CCN(C(=O)/C=C/CN(C)C)C3)CC2)n2ncc(C(C)C)c2n1 (centres unmarked)  patients with adverse event (Phase I dose escalation CTCAE v4.0, refers to: Anemia; patients with advanced solid tumours; dose not given, TIW dosing any grade): 18%
NS(=O)(=O)c1nnc(NC(=O)CCC2CC3CCC2C3)s1 (centres unmarked)  Ki (Alpha-carbonic anhydrase (Enterococcus faecium, UniProt Q3XYE8); CO2 hydration, inhibitor, stopped-flow kinetics): 0.0428 µM
CCc1cc(C(=O)NC)c2nccc(N3CCc4c(cc(Cn5ccnc5)cc4-c4cn(C)nc4C(F)(F)F)C3=O)c2c1  reticulocytes (Sprague Dawley rats; oral, 100 mg/kg once daily, 7 days; reference: red blood cells): 4.92 ± 0.36%
CNc1ccc(-c2nc3ccc(O)cc3s2)cc1 [carbon-11 labelled]  SUV (ex vivo biodistribution; APP/PS1 mouse, AD model, spleen; intravenous, 30 min): 0.232 ± 0.104
O=C(Nc1ccc(S(=O)(=O)Nc2ncccn2)cc1)c1c(Cl)cccc1Cl  logD (octanol/buffer; pH 7.4): 0.83
CCN1/C(=C/C(C)=O)Sc2ccc(F)cc21  PR interval change (cynomolgus monkey; oral, 30 mg/kg, 1 h post-dose; reference: pre-dose): 101 ± 3.8%
CN(C)CCCN1c2ccccc2CCc2cc(O)ccc21  chromatographic hydrophobicity index (reverse phase LC, C18; acetonitrile gradient, 0.1% formic acid; converted from retention time; reference: Valko CHI standards): 51.1
CC(C)C[C@H](NC(=O)[C@H]1O[C@@H]1C(=O)O)C(=O)NCCCCN=C(N)N  cysteine adduct formation (PBS; 100 µM, 23 h, pH 8, 37 °C, together with: cysteine 10 mM): 79%
CC(C)(C)c1ccc([C@H]2COC[C@@H](C3CCCCC3)N2)cc1  logD (shake-flask, 1-octanol/buffer; pH 7.4): > 4.7
Nc1ccn([C@H]2C[C@H](O)[C@@H](COP(=O)(O)O)O2)c(=O)n1  z-scored log2 fold change (binding, equilibrium dialysis LC-MS; 5 µM, thermostabilized A2AR-BRIL construct; reference: no-protein control, direction not given): 0.679
Cc1c([C@H]2COC[C@@H](c3cc(Cl)cc(Cl)c3)N2)cnn1-c1ccccc1  logD (shake-flask, 1-octanol/buffer; pH 7.4): > 4.7
CC(C)(C(=O)N1CCOc2c(C#N)cncc2C1)C(F)F  subjects with adverse event (refers to: Polyuria; human; oral, 10 mg, CSF pharmacokinetic cohort): 0%
C=CCN1CC(=O)N2[C@@H](Cc3ccc(O)cc3F)C(=O)N(Cc3cccc(N4CC(N5CCN(CC)CC5)C4)n3)C[C@@H]2N1C(=O)NCc1ccccc1  treatment-related diarrhoea (advanced solid tumour patients; oral, 45 mg twice daily, any grade, dose-escalation): 0%
Cc1ccc(N(C)C(=O)/C=C/c2ccco2)cc1  licking latency (hot plate test; mouse; oral, 30 mg/kg daily for 7 days, day 8, 30 min after dose): 15 ± 0.6 s
Cc1cc(-c2nccc3c2ccn3CC(=O)Nc2ccc(-c3cnccn3)cn2)ccn1  general disorder TEAEs (healthy human volunteers; oral, 40 mg single dose, single ascending dose): 0%
O=C(O)COP(=O)(O)O  z-scored log2 fold change (binding, equilibrium dialysis LC-MS; 5 µM, thermostabilized A2AR-BRIL construct; reference: no-protein control, direction not given): 0.455
O=C(O)Cn1cnc2c(oc3ccccc32)c1=O  Kd (Ubiquitin carboxyl-terminal hydrolase 39, ZnF-UBD domain (Homo sapiens, UniProt Q53GS9)): > 1000 µM
Oc1ccc(/C=C/c2cc(O)cc(O)c2)cc1  sodium (rat, azoxymethane-injected, blood at sacrifice; 10 mg/kg): 147 mEq/L and 149 mEq/L and 146 mEq/L
Cn1cnc2c(F)c(Nc3ccc(Br)cc3Cl)c(C(=O)NOCCO)cc21  absorption rate constant (population PK model; human, plasma; oral, sequential zero-first-order absorption, fasted): 1.05 h⁻¹
O=C(O)CNc1ncnc2ccccc12  Kd (Ubiquitin carboxyl-terminal hydrolase 49, ZnF-UBD domain (USP49, Homo sapiens, UniProt Q70CQ1)): > 1000 µM
